# Published values of several laboratories.
# Each line is one published result; not all experiments were run side by side. “And” joins repeats or separate records; there may be more than shown. ± gives the spread as reported.
Compound,cell line,assay,test system,conditions,how to read,measurement,value
O=C(CSc1cccc[n+]1[O-])c1ccccc1Br,LDR,"silenced CMV-GFP reporter derepression, qHTS",,,,efficacy,80%
CCNc1cc2c(cc1C)C1(c3cc(C)c(NCC)cc3O2)c2ccccc2C(=O)N1N=Cc1c[c-]c(-c2ccccn2)cc1.Cc1c(C)c(-c2ccc(-c3ccccc3)cc2)[c-](C)c1C.[Cl-].[Ir+3],A549,PI flow cytometry,,"2 x IC50, 24 h",,G0/G1 phase cells,51.53 ± 0.28%
O=C(N/N=C/c1ccccn1)c1cc(-c2ccc(Cl)cc2)nc2ccccc12,LDR,"silenced CMV-GFP reporter derepression, qHTS",,,,Emax,72%
O=C(C[Se]C(=O)c1cccnc1Nc1cccc(C(F)(F)F)c1)Nc1cccc(C(F)(F)F)c1,NCI60 NSCLC subpanel,NCI60 five-dose screen,,,,GI50,1740 nM
[BH3-][P+]1(c2ccccc2)CCCCC1,SW480,ELISA,,"IC50, 72 h",,IL-6 level,2.9 ± 0.16 pg/mL
COc1ccccc1-c1ccncc1C(=O)Nc1ccc(OCc2ccc(Cl)cc2)nn1,DLD-1 BRCA2-/-,,,"5 µM, mean of 3 replicates",baseline: untreated,colony survival,99.3%
CCN(C(=O)c1cc(F)ccc1Oc1nncnc1N1CCC2(C1)CN([C@H](CCCN(C)CCOC)C(C)C)C2)C(C)C,SK-LMS-1,,uterus,168 h,,GI50,> 10000 nM
O=S(=O)(c1ccc2c(c1)OCO2)n1cc(CCCCN2CCC(=C(c3ccc(F)c(F)c3)c3ccc(F)c(F)c3)CC2)nn1,SH-SY5Y,live-cell imaging biosensor,,"10 µM, 2 h",,intracellular FBP level,increased
C=CC(=O)N1CCCC(n2c(=O)c3ncccc3n(Cc3ccc(Oc4ccccc4)cc3)c2=O)C1 (stereo not drawn),SSK41,"cell growth or viability, MTT",,72 h,,IC50,2500 nM
Cc1ncsc1-c1ccc(C(C)NC(=O)C2CC(O)CN2C(=O)C(NC(=O)CCCCCCCCCCN2CCCC(Nc3ncc(Cl)c(Nc4ccccc4S(=O)(=O)C(C)C)n3)C2)C(C)(C)C)cc1 (stereo not drawn),22Rv1,"RNA-seq, measured: RBBP8NL mRNA",,concentration not given,baseline: DMSO,log2 fold change,-1.8
CNS(=O)(=O)Nc1nccc(Cc2c(C)c3ccc(Oc4ncccc4F)cc3oc2=O)c1F,SUM149PT,cell viability,,7 days,,IC50,14.2 nM
O=C(CCCCCOc1ccc2ccccc2c1)N[C@@H](CO)C[C@@H](O)c1ccc(-c2ccccc2)cc1,HeLa,"CERT activity, HPLC-MS/MS lipidomics",,"1 µM, 24 h, not cell-number normalised",,total ceramide level,66100 pmol/sample and 62000 pmol/sample and 71000 pmol/sample
CCCC[C@H](NC(=O)[C@H](CC(C)C)NC(=O)[C@H](CO)NC(=O)[C@H](CO)NC(=O)[C@H](C)NC(=O)[C@H](CO)NC(=O)[C@H](C)N)C(=O)N[C@@H](CC(=O)O)C(=O)N[C@@H](CCCCN)C(=O)N[C@@H](CCC(=O)O)C(=O)N[C@@H](C)C(=O)N[C@H](C(=O)N[C@@H](Cc1ccc(O)cc1)C(=O)N[C@@H](Cc1ccccc1)C(=O)N[C@@H](C)C(=O)N[C@@H](Cc1c[nH]cn1)C(=O)N[C@@H](CC(C)C)C(=O)N[C@@H](CC(=O)O)C(=O)N[C@H](C(=O)N[C@H](C(=O)N[C@@H](Cc1c[nH]c2ccccc12)C(=O)O)[C@@H](C)CC)[C@@H](C)CC)C(C)C,COS-7 ETBR-GFP,"calcium flux, agonist",,ETBR/ETAR ratio 1:2,,Emax,61 ± 6%
Cc1cc(NC2CCN(C)CC2)ccc1-c1cc2c(N3CCC[C@H](C(=O)N4CCCC4)C3)ncnc2[nH]1,NCI-H2228,"cell growth or viability, MTT",,"5 µg/mL, 72 h",,inhibition,76.7%
CO[C@@H]1[C@@H](OC(N)=O)[C@@H](O)[C@H](Oc2ccc3c(O)c(NC(=O)c4ccc(O)c(CC=C(C)C)c4)c(=O)oc3c2C)OC1(C)C,HCT-116 parental,,,"200 µM, replicate 2",,colony count,9.5
Cn1ncc2cc(-c3cncc(Cl)c3N3CCC4(CCNC4=O)CC3)ccc21,LS174T,"gene expression, microarray, measured: CNN1 mRNA",,"concentration not given, 24 h",baseline: untreated cells,log2 fold change,-2.22
CC(C)c1ccc(N(C)c2ccc3c(c2)OCC[C@H]3CNc2cnccc2C(=O)O)cc1,BICR18,"cell viability, CellTiter-Glo",,7 days,,IC50,194 nM
Cc1cc(NC2CCN(C)CC2)ccc1-c1cc2c(N3CCC[C@H](C(=O)Nc4cccc(Cl)c4)C3)ncnc2[nH]1,NCI-H2228,"cell growth or viability, MTT",,"5 µg/mL, 72 h",,inhibition,86.6%
COC(=O)[C@H](C)NC(=O)[C@H](C)NC(=O)c1csc(-c2cccnc2)n1,PC3-TxR,cell growth or viability,,,,EC50,> 30 µM
Nc1ncc(-c2cc(-c3cnn(CC(F)(F)F)c3)ncc2F)nc1C(=O)NC1CNCC(F)C1 (stereo not drawn),TNBC cells,Western blot,,concentration not given,,CHK2 phosphorylation,decreased
COC(=O)c1cc(NC2=NC(=O)C(=Cc3ccc(N(C)C)cc3)S2)ccc1OC(C)=O,MCF7,"GC-MS, measured: Hydroxylamine",,1 µM,baseline: DMSO,metabolite level,0.27 fold change
CCN(CC)CC(=O)Nc1cccc(-n2cc(-c3ccc4ccc(-c5cn(-c6cccc(NC(=O)CN(CC)CC)c6)nn5)cc4c3)nn2)c1,RCC4,"PCR array, measured: CTGF",,"5 x IC50, 6 h, normoxia",baseline: untreated,fold regulation,-3.03
COc1ccc2c(c1)OC1=C(C(=O)CCC1)C2c1c[nH]c2ccccc12 (stereo not drawn),3T3-L1 adipocytes,"qPCR, measured: adiponectin",,"IC20, 14 days",baseline: untreated mature adipocytes,mRNA level,increased
O=C(C[Se]C(=O)c1ccc2ccccc2c1)Nc1cccc(C(F)(F)F)c1,NCI60 renal subpanel,cell growth,,"10 µM, 48 h, one-dose",,mean growth percent,-82.8%
CCN(CC)CCCNC(=O)CSc1c2c(nc3cc(Cl)ccc13)CCCC2,LDR,"silenced CMV-GFP reporter derepression, qHTS",,,,Emax,63%
O=C(NCc1ccc(OC(F)(F)F)cc1)[C@H]1CCCN(c2ncnc3[nH]c(-c4cc(F)c(F)c(F)c4)cc23)C1,NCI-H2228,"cell growth or viability, MTT",,"0.04 µg/mL, 72 h",,inhibition,-3.12%
CN1CCCNC(=O)c2cccc(c2)C(=O)NCCCN(C)CCCNc2cccc3c2C(=O)c2cccc(c2C3=O)NCCC1,SAS,"RNA-seq, measured: NCBP2-AS2 mRNA",,"1 µM, 6 h",baseline: untreated cells,log2 fold change,-0.529
O=C(N1CCCC1)n1cc(-c2ccc(-c3ccccc3)cc2)nn1,mouse T cells,"N-terminal labelling proteomics, measured: Ndrg1 N-terminal peptide",,"0.001 µM, 6 h",baseline: DMSO,SILAC ratio per peptide,1.43 and 1.04
O=C(NCc1ccc(OC(F)(F)F)cc1)[C@H]1CCCN(c2ncnc3[nH]c(-c4cccs4)cc23)C1,NCI-H2228,"cell growth or viability, MTT",,"1 µg/mL, 72 h",,inhibition,70.5%
CCC(=CCc1c(O)cc2c(c1O)C(=O)CC(c1ccc(O)cc1)O2)CC (stereo not drawn),HeLa,annexin V/PI,,"12 µM, 48 h",,early apoptotic cells,0.22 ± 0.02%
COC(=O)c1cc(NC2=NC(=O)C(=Cc3ccc(C)cc3)S2)ccc1OC(C)=O,MCF7,"GC-MS, measured: Phosphoric acid",,1 µM,baseline: DMSO,metabolite level,0.19 fold change
COc1cc(-c2cc3c(N4CCC[C@H](C(=O)NCc5ccc(OC(F)(F)F)cc5)C4)ncnc3[nH]2)cc(OC)c1OC,NCI-H2228,"cell growth or viability, MTT",,"1 µg/mL, 72 h",,inhibition,67.4%
Cc1sc2c(c1C)C(c1ccc(Cl)cc1)=N[C@@H](CC(=O)NCC(=O)N1CCC3(CCC(C(=O)N4CCN(C(=O)c5cc(Cc6n[nH]c(=O)c7ccccc67)ccc5F)CC4)CC3)CC1)c1nnc(C)n1-2,NCI-H82,,,"1000 nM, 24 h",,cells in G1 phase,10%
COc1c(C)c(OS(=O)(=O)c2ccccc2)c(C)c(O)c1C(=O)/C=C/c1ccccc1,SH-SY5Y,SRB,,,baseline: normal over SH-SY5Y IC50,selectivity index,1.42
COc1ccc(NC(=O)c2ccc3[nH]c(-c4ccc(N(C)C)cc4)nc3c2)cn1,HCEC-hTERT,IncuCyte,,"concentration not given, 14 h",,dead cell to confluence ratio,2.91 and 6.92 and 87.2
COc1ccccc1-c1ccncc1C(=O)Nc1nnc(OCc2ccc(Cl)cc2)s1,MDA-MB-436 BRCA1-mutant,colony formation,,1.5 µM,baseline: vehicle (DMSO),colony survival,52.4%
O=C(NCc1ccc(OC(F)(F)F)cc1)[C@H]1CCCN(c2ncnc3[nH]c(-c4ccncc4)cc23)C1,NCI-H2228,"cell growth or viability, MTT",,"0.2 µg/mL, 72 h",,inhibition,60.3%
Cc1ccc(/C=N/N=C(\S)Nc2cccc(S(=O)(=O)N(C)C)c2)o1,LDR,"silenced CMV-GFP reporter derepression, qHTS",,,,Emax,72%
COc1ccc(-c2cc3c(N4CCC[C@H](C(=O)NCc5ccc(OC(F)(F)F)cc5)C4)ncnc3[nH]2)cn1,NCI-H2228,"cell growth or viability, MTT",,"5 µg/mL, 72 h",,inhibition,77.9%
Cc1c(Cl)cccc1Nc1ccccc1C(=O)[Se]CC(=O)Nc1cccc(C(F)(F)F)c1,NCI60 renal subpanel,cell growth,,"10 µM, 48 h, one-dose",,mean growth percent,-82.3%
C=CS(=O)(=O)Oc1ccc(OC)c(-c2c[nH]c3ncc(-c4cncc(C(=O)N(C)C)c4)cc23)c1,Ba/F3 BCR-ABL T315I,cell proliferation,,72 h,,GI50,729 ± 219 nM
O=C(C[Se]C(=O)c1cc2ccccc2[nH]1)Nc1cccc(C(F)(F)F)c1,NCI60 renal subpanel,cell growth,,"10 µM, 48 h, one-dose",,mean growth percent,-82.8%
Cc1cc(NC2CCN(C)CC2)ccc1-c1cc2c(N3CCC[C@H](C(=O)N[C@H](C)c4ccccc4)C3)ncnc2[nH]1,NCI-H2228,"cell growth or viability, MTT",,"1 µg/mL, 72 h",,inhibition,85.5%
O=C(C[Se]C(=O)c1ccc2ccccc2n1)Nc1cccc(C(F)(F)F)c1,NCI60 renal subpanel,"total growth inhibition, inhibitor",,five-dose,,mean TGI,3.59 µM
CCC(=O)N1CCN(c2ccc(NC(=O)c3ccc([N+](=O)[O-])o3)cc2Cl)CC1,LDR,"silenced CMV-GFP reporter derepression, qHTS",,,,efficacy,50%

# Some of these lines once more:
Compound,cell line,assay,test system,conditions,how to read,measurement,value
C=CS(=O)(=O)Oc1ccc(OC)c(-c2c[nH]c3ncc(-c4cncc(C(=O)N(C)C)c4)cc23)c1,Ba/F3 BCR-ABL T315I,cell proliferation,,72 h,,GI50,729 ± 219 nM
Nc1ncc(-c2cc(-c3cnn(CC(F)(F)F)c3)ncc2F)nc1C(=O)NC1CNCC(F)C1 (stereo not drawn),TNBC cells,Western blot,,concentration not given,,CHK2 phosphorylation,decreased
C=CC(=O)N1CCCC(n2c(=O)c3ncccc3n(Cc3ccc(Oc4ccccc4)cc3)c2=O)C1 (stereo not drawn),SSK41,"cell growth or viability, MTT",,72 h,,IC50,2500 nM
CCN(C(=O)c1cc(F)ccc1Oc1nncnc1N1CCC2(C1)CN([C@H](CCCN(C)CCOC)C(C)C)C2)C(C)C,SK-LMS-1,,uterus,168 h,,GI50,> 10000 nM
